Assay results pooled from the literature.
Protocols differ between the studies behind these lines. Several values in a cell are separate wells, animals, samples, runs or records. ± gives the spread as reported.
Kir3.1/Kir3.4: Kir3.1/Kir3.4 (Homo sapiens, UniProt P48544+P48549)
pyrD: Dihydroorotate dehydrogenase (quinone) (pyrD, Acinetobacter baumannii, UniProt B7GZW7)
AKR1B1: Aldo-keto reductase family 1 member B1 (AKR1B1, Homo sapiens, UniProt P15121)
T1: aptamer DNA aminoglycoside aptamer; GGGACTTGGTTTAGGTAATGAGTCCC
T2: riboswitch RNA yjdF aptamer domain (Bacillus subtilis); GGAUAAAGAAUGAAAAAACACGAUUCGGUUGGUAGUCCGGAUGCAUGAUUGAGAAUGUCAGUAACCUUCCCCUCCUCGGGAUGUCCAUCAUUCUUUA

Under “log2 fold change”, `N#Cc1ccc2c(-c3ccncc3)c(-c3ccc(F)cc3)nn2c1` is recorded as -0.084 (Cyclin-dependent kinase 1 (CDC28, Candida albicans, UniProt P43063); kinase binding, competitor, MIB/MS competition, refers to: CDC28; Candida albicans cell lysate; 100 nM; reference: DMSO).
With `O=C(COc1cc(Cl)ccc1Cl)Nc1cc(C2CC2)nn1CC(F)(F)F` the Emax was 25% (Kir3.1/Kir3.4; thallium flux, activator; HEK293; reference: standard compound).
`Nc1ncnc2c1ncn2C(C=O)OC(C=O)CO` (centres unmarked): SART3 binding “decreased” (SND1; co-immunoprecipitation; HEK293T expressing GFP-RMET; 25 µM, 3 days).
For `CCn1c(-c2nc3cc(C(=O)N4CCC[C@@H](N)C4)cc(OC)c3n2C)cc2cccnc21`, the Ki' was 147 ± 49 µM (PADI4 (Homo sapiens, UniProt Q9UM07); mixed inhibitor; added: BAEE substrate, 10 mM CaCl2).
`O=C(COP(=O)(O)O)[C@@H](O)[C@H](O)[C@H](O)COP(=O)(O)O`: “concentration for maximal activation” 1190 ± 208 nM (Pyruvate kinase PKM (PKM, Homo sapiens, UniProt P14618); enzyme activity, activator; added: AIM).
`C[C@]12C[C@H](O)[C@H]3[C@@H](CCC4=CC(=O)CC[C@@]43C)[C@@H]1CC[C@@H]2C(=O)CO`: “18-hydroxylation product formation rate” 1.4 ± 0.1 min⁻¹ (CYP11B1 (Homo sapiens, UniProt P15538, V320A); substrate; 100 µM, 37 °C, phospholipid vesicles).
`CCOc1nc2nc(C)cc(Nc3ccc(S(F)(F)(F)(F)F)cc3)n2n1` gave a robust Z-score of 24.5 (pyrD; enzyme activity, inhibitor, colorimetric HTS, refers to: DCIP reduction; 3 µM; direction not given).
`[O-][S+]1CCCCS1` (centres unmarked) gave a target engagement of 15.8% and 16% (SOD1 (Homo sapiens, UniProt P00441, G94A); intact protein LC-MS; SOD1 G93A transgenic mice, whole blood; intravenous, 10 mg/kg, 72 h).
With `C[C@H](N)C(=O)Nc1ccc2ccccc2c1` the Km was 10 µM (rat aminopeptidase III; substrate).
For `O=C(O)[C@@H]1CCCN1c1ncnc2[nH]cnc12` (racemic), “log fold enrichment” read -0.0166 (Protein transport protein Sec31A (SEC31A, Homo sapiens, UniProt O94979); binding, affinity selection mass spectrometry; reference: other proteins in batch).
`CCCCC/C=C\C/C=C\C/C=C\C/C=C\CCCC(=O)O` gave a metabolism rate of 42.8 ± 1.3 pmol/min/nmol CYP2J2 (Cytochrome P450 2J2 (CYP2J2, Homo sapiens, UniProt P51589, L2A/T318V); substrate; 50 µM).
`Nc1nc(=O)n([C@H]2C[C@H](O)[C@@H](CO)O2)cc1CCN(CC[C@H](N)C(=O)O)C[C@H]1O[C@@H](n2cnc3c(N)ncnc32)[C@H](O)[C@@H]1O`: inhibition type “inhibited” (DNMT1 (Homo sapiens, UniProt P26358); radiometric [3H]-SAM; concentration not given, added: SAM, poly(dI-dC)).
`CCCCCCCC/C=C\CCCCCCCC(=O)NCCc1ccc(O)c(O)c1` has a Hill coefficient of 2.48 ± 0.32 (Trpv1 (Mus musculus, UniProt Q704Y3, D510E); ion current, agonist, whole-cell patch clamp; D510E).
`NS(=O)(=O)NCCNc1nonc1C(=NO)Nc1ccc(F)c(Br)c1` has an inflection temperature of 65.2 ± 0.1 °C (IDO1 (Homo sapiens, UniProt P14902); nanoDSF; 1% DMSO; 50 µM, unlabelled protein 2.5 µM, no DTT).
`O=C(COc1ccc(Cl)cc1Cl)Nc1nn(-c2ccccc2)c2ncccc12`: activity “inactive” (Kir3.1/Kir3.4; activator, thallium flux; HEK293; concentration not given).
For `CC[C@H](C)[C@@H]1NC(=O)[C@H](C)NC(=O)[C@H]([C@@H](C)CC)NC(=O)[C@H](CCC(N)=O)NC(=O)[C@H](C)NC(=O)[C@H](CCCNC(=N)N)NC(=O)[C@H](C(C)C)NC(=O)[C@H](CC(C)C)NC(=O)[C@H](CCC(=O)O)NC(=O)[C@H](CCCNC(=N)N)NC(=O)CNC(=O)[C@@H](NC(=O)[C@H](CC(C)C)NC(=O)[C@H](CCCCN)NC(=O)[C@@H](NC(=O)[C@@H](NC(=O)[C@H](CCC(=O)O)NC(=O)[C@H](CCC(=O)O)NC(=O)[C@H](CCSC)NC(=O)[C@H](Cc2c[nH]c3ccccc23)NC(=O)[C@H](CO)NC(=O)[C@@H](N)CC(=O)O)C(C)C)[C@@H](C)CC)CSSC[C@@H]2NC(=O)[C@@H](NC(=O)[C@H](CCCCN)NC(=O)[C@H](CC(N)=O)NC(=O)[C@H](C)NC(=O)[C@H](CC(C)C)NC(=O)[C@H](C)NC(=O)[C@H](CO)NC(=O)[C@H](Cc3ccc(O)cc3)NC(=O)[C@H](CC(C)C)NC(=O)[C@H](CCC(N)=O)NC(=O)c3ccc(-c4c5ccc(=[N+](C)C)cc-5oc5cc(N(C)C)ccc45)c(C(=O)[O-])c3)CSSC[C@H](NC(=O)CNC(=O)[C@H](C(C)C)NC(=O)[C@H](Cc3c[nH]cn3)NC2=O)C(=O)N[C@@H]([C@@H](C)O)C(=O)N[C@@H](CCCCN)C(=O)N[C@@H](CCCNC(=N)N)C(=O)N[C@@H](CO)C(=O)N[C@@H](CC(C)C)C(=O)N[C@@H](C)C(=O)N[C@@H](CCCNC(=N)N)C(=O)N[C@@H](Cc2ccccc2)C(=O)N[C@H](C(=O)O)CSSC[C@@H](C(=O)NCC(=O)N[C@@H](CCSC)C(=O)N[C@@H](CO)C(=O)N[C@H](C(=O)N[C@@H](Cc2c[nH]c3ccccc23)C(=O)N[C@@H](CO)C(=O)O)[C@@H](C)O)NC1=O`, “fast dissociation fraction” read 25.4% (Relaxin receptor 1 (RXFP1, Homo sapiens, UniProt Q9HBX9); NanoBRET; concentration not given, infinite dilution).
With `CCOC(F)(F)c1nnc2cnc(-c3cnc(OCC(F)(F)F)c(F)c3)cn12` the Hill slope was 172 (SCN2A (Homo sapiens, UniProt Q99250); persistent sodium current, patch clamp; added: ATX-II).
Under “normalised MST signal”, `O=C(O)C1CCCNC1` (centres unmarked) is recorded as -0.0668 (SLC6A6 (Homo sapiens, UniProt P31641, G62A); binding, microscale thermophoresis; 244 nM, room temperature, added: 50 nM labelled protein; higher = more binding).
With `NC[C@H]1O[C@H](O[C@H]2[C@H](O)[C@@H](O[C@H]3O[C@H](CO)[C@@H](O)[C@H](N)[C@H]3O)[C@H](N)C[C@@H]2N)[C@H](O)[C@@H](O)[C@@H]1O` the Kd was 500 µM (T1, aptamer DNA aminoglycoside aptamer; square-wave voltammetry; apparent, aptamer electrode, Langmuir fit).
`CCCCCCCCCCc1ccc([C@H]2CC[C@H]([N+](C)(C)CCC)CC2)cc1.[I-]` has a Ki/Km ratio of 8.6 (SPHK2 (Homo sapiens, UniProt Q9NRA0); inhibitor, radiometric flash-plate; cell lysate; added: sphingosine 5 µM).
With `Nc1ncnc2c1ncn2[C@@H]1O[C@H](COP(=O)(O)CP(=O)(O)OP(=O)(O)O)[C@@H](O)[C@H]1O` the calcium influx was 100% and 94.8% and 97.2% and 92.9% (P2X purinoceptor 1 (P2RX1, Homo sapiens, UniProt P51575, M214A); calcium influx; 3.16 µM; reference: ionomycin response).
`Cc1cc(NC2Cc3cc(F)c(F)cc3C2)n2nc(C(F)(F)F)nc2n1` has a robust Z-score of 20.3 (pyrD; enzyme activity, inhibitor, colorimetric HTS, refers to: DCIP reduction; 3 µM; direction not given).
`CC(=C/C(=O)O)/C=C/C=C(\C)C1C=C2C(C)(C)CCCC2(C)O1` (centres unmarked): “plasma membrane localization” 0.42 (Rhodopsin (RHO, Homo sapiens, UniProt P08100, T17M); immunostaining, refers to: opsin; COS-7 transfected; 5.00 µM, unit not given; reference: surface over total stained cells).
`O=C(CCCCCCC(=O)Nc1ccccc1)NO` gave a TΔS of 0.335 kJ/mol (HDAC8 (Homo sapiens, UniProt Q9BY41); ITC; triethanolamine buffer; pH 7.5).
`CSc1nc2nc(C)cc(Nc3ccc(C(F)(F)F)c(F)c3)n2n1` gave a robust Z-score of 23.2 (pyrD; enzyme activity, inhibitor, colorimetric HTS, refers to: DCIP reduction; 3 µM; direction not given).
With `O=c1nc(SCc2cc(F)cc(C(F)(F)F)c2)nc(SCc2ccc3sccc3c2)[nH]1` the linear DNA was 6.6% (TOP2A (Homo sapiens, UniProt P11388); DNA cleavage; 31.25 µM, replicate 2).
With `C[C@@H](c1ccc(-n2cnc3c(N)ncnc32)cc1)N1CCc2nn(C)c(Cc3ccccc3)c2C1=O` the remaining binding was 76% (PKMYT1 (Homo sapiens, UniProt Q99640); KINOMEscan; 0.1 µM; reference: DMSO control).
For `Nc1ncnc2c1ncn2[C@@H]1O[C@H](COP(=O)(O)OP(=O)(O)NP(=O)(O)O)[C@@H](O)[C@H]1O`, the ΔH was -10 ± 0.651 kJ/mol (Cell cycle histidine kinase CckA, CA domain (Caulobacter vibrioides, UniProt Q9X688); ITC; added: c-di-GMP 100 µM).
With `O=C(Nc1ccccc1OS(=O)(=O)c1ccc(F)cc1)c1ccc2ncccc2c1` the fluorescence increase was 81.7 ± 0.11% (P2X purinoceptor 4 (P2RX4, Homo sapiens, UniProt Q99571); calcium mobilization; MCF7 stably transfected; 100 µM, added: ATP 100 µM).
The potency ratio of `COc1cc(O)c2c(c1)oc(=O)c1c3cc(O)c(O)cc3oc21` is reported as roughly 17 fold (MAL12 (Saccharomyces cerevisiae S288c, UniProt P53341); added: p-nitrophenyl glucoside; reference: acarbose IC50 over compound IC50).
`CC1=NOC(=O)C1=NNc1ccc(S(N)(=O)=O)cc1` has an inhibition of 40.1% (bovine α-glucosidase; enzyme activity, inhibitor, glucose oxidase; 200 µg/mL, added: maltose).
The log IC50 of `Cc1ccc(/C=C2\SC(=O)N(CC(=O)c3ccc([N+](=O)[O-])cc3)C2=O)cc1` is reported as 2.75 log nM (AKR1B1; enzyme activity, inhibitor).
`COc1cc(C(F)(F)F)cc2c(N3CCN4c5ccccc5OC[C@H]4C3)c(C#N)nnc12` (single isomer, unassigned) has a maximal response of 54% (Grm7 (Rattus norvegicus, UniProt P35400); positive allosteric modulator; cell-based; added: L-AP4 EC20; reference: L-AP4 maximum).
For `N[C@@H](Cc1ccc(O)cc1)C(=O)O`, the Km was 250 µM (bacterial tyrosinase; substrate).
With `O=C(c1ccc(C(=O)N2CCC(N3CCCC3)CC2)c(Nc2ccccc2)c1)N1CCC(N2CCCC2)CC1` the diffusion coefficient was 0.0428 µm2/s (Lethal(3)malignant brain tumor-like protein 3 (Homo sapiens, UniProt Q96JM7); FRAP; human cells; 0.01 µM).
`COc1ccc(/C=C2\SC(=O)N(Cc3nc4ccccc4s3)C2=O)cc1OC` has a log IC50 of 2.66 log nM (AKR1B1; enzyme activity, inhibitor).
The Kd of `Nc1ccc2cc3ccc(N)cc3nc2c1` is reported as 0.0014 µM (T2, riboswitch RNA yjdF aptamer domain (Bacillus subtilis); fluorescence titration).
The activation of `COc1cc(NC(=O)c2cscn2)ccc1/N=N/c1ccccc1Cl` is reported as -35.4% (GRM3 (Homo sapiens, UniProt Q14832); positive allosteric modulator, IP accumulation; HEK293; 30 µM, in the dark, added: low-dose orthosteric agonist).

Some of these lines once more:
With `O=C(c1ccc(C(=O)N2CCC(N3CCCC3)CC2)c(Nc2ccccc2)c1)N1CCC(N2CCCC2)CC1` the diffusion coefficient was 0.0428 µm2/s (Lethal(3)malignant brain tumor-like protein 3 (Homo sapiens, UniProt Q96JM7); FRAP; human cells; 0.01 µM).
`COc1ccc(/C=C2\SC(=O)N(Cc3nc4ccccc4s3)C2=O)cc1OC` has a log IC50 of 2.66 log nM (AKR1B1; enzyme activity, inhibitor).
The Kd of `Nc1ccc2cc3ccc(N)cc3nc2c1` is reported as 0.0014 µM (T2, riboswitch RNA yjdF aptamer domain (Bacillus subtilis); fluorescence titration).
The activation of `COc1cc(NC(=O)c2cscn2)ccc1/N=N/c1ccccc1Cl` is reported as -35.4% (GRM3 (Homo sapiens, UniProt Q14832); positive allosteric modulator, IP accumulation; HEK293; 30 µM, in the dark, added: low-dose orthosteric agonist).
